Published values pooled from the literature.
Lines come from different studies, so protocols differ. “And” joins repeats or separate records; there may be more than shown. Numbers after ± are the reported error.
CSNK1D: Casein kinase I isoform delta (CSNK1D, Homo sapiens, UniProt P48730)
UniProt P48730, sequence (whole entry, looked up): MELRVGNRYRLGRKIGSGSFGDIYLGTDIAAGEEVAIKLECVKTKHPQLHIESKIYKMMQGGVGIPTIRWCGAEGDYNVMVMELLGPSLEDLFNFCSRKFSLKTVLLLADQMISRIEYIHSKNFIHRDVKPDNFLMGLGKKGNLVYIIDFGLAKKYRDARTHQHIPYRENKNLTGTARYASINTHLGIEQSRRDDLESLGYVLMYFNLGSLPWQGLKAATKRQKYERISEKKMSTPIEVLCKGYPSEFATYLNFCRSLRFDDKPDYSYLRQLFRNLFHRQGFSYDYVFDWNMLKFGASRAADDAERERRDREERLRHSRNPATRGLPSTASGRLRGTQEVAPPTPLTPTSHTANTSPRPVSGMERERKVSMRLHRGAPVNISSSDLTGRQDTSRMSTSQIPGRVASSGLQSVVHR
IDE: Insulin-degrading enzyme (IDE, Homo sapiens, UniProt P14735)
Protein AF-9 with DOT1L: Protein AF-9, with DOT1L (Homo sapiens, UniProt P42568)
UniProt P42568, sequence (whole entry, looked up): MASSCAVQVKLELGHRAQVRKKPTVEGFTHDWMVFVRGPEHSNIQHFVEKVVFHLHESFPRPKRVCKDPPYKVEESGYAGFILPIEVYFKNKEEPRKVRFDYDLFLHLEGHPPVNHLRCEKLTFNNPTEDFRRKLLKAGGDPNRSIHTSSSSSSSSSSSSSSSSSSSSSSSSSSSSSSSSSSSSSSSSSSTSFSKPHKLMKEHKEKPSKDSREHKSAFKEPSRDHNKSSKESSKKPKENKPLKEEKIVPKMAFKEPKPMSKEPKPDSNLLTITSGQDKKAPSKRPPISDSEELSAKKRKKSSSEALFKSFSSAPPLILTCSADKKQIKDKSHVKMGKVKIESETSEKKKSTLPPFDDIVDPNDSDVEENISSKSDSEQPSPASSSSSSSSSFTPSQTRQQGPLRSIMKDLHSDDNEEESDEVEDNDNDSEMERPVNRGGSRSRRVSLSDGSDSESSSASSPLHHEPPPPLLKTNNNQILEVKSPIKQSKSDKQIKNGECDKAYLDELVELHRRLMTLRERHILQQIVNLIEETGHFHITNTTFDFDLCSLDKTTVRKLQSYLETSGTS
CD274: Programmed cell death 1 ligand 1 (CD274, Homo sapiens, UniProt Q9NZQ7)
UniProt Q9NZQ7, sequence (whole entry, looked up): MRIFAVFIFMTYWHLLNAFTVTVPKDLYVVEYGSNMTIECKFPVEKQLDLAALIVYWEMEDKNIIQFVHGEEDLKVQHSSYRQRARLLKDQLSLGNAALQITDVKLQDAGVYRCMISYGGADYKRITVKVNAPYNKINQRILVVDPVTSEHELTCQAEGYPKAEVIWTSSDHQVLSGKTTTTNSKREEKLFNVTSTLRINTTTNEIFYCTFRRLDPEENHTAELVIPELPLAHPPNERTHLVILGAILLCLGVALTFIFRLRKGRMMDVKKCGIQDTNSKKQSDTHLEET
BRD9: Bromodomain-containing protein 9 (BRD9, Homo sapiens, UniProt Q9H8M2)
UniProt Q9H8M2, sequence (whole entry, looked up): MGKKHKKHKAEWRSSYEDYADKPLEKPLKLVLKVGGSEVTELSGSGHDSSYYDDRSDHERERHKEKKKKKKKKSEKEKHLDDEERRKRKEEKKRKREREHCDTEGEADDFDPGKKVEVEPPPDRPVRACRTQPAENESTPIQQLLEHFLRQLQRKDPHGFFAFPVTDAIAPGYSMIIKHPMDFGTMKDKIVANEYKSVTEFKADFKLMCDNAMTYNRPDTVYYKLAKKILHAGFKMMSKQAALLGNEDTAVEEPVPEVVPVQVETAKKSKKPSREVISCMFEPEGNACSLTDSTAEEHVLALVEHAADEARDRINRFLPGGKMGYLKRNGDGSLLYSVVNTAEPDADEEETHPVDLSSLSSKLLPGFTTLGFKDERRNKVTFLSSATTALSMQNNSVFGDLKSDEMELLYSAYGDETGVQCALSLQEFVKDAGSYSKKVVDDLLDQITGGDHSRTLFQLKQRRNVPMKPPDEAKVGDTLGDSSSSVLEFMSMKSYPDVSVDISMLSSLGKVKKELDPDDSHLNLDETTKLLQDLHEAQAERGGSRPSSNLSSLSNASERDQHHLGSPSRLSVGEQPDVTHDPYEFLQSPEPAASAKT
SIRT3: NAD-dependent protein deacetylase sirtuin-3, mitochondrial (SIRT3, Homo sapiens, UniProt Q9NTG7)
UniProt Q9NTG7, sequence (whole entry, looked up): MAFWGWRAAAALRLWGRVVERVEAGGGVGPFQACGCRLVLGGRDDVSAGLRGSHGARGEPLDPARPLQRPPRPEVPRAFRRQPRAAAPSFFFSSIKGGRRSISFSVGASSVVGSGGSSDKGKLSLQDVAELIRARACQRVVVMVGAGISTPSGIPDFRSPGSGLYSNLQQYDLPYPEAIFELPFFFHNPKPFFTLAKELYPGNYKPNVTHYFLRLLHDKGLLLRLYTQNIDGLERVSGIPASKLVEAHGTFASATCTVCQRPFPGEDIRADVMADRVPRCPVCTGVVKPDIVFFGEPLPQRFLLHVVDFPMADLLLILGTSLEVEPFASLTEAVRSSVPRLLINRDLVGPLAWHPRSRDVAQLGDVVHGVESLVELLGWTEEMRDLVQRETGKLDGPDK
A-type voltage-gated potassium channel KCND2: A-type voltage-gated potassium channel KCND2 (Rattus norvegicus, UniProt Q63881)
UniProt Q63881, sequence (whole entry, looked up): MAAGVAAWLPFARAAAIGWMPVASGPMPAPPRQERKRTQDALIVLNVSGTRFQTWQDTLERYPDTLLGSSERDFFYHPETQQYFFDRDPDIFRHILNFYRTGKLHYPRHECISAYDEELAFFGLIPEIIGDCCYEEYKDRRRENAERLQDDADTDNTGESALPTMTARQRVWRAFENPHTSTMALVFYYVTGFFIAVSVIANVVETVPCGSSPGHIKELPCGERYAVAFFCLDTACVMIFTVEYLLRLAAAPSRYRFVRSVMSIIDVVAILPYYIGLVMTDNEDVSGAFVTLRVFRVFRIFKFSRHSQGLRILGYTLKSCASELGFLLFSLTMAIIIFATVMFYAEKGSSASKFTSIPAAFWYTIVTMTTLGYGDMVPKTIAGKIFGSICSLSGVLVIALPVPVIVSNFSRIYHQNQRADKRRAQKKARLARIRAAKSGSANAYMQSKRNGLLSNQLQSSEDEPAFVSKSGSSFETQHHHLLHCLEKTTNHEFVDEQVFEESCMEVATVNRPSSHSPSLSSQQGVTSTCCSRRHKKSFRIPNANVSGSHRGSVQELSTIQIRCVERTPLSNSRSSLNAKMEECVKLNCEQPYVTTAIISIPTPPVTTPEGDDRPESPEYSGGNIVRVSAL
UniProt Q8IWT6, sequence (whole entry, unmodified, looked up): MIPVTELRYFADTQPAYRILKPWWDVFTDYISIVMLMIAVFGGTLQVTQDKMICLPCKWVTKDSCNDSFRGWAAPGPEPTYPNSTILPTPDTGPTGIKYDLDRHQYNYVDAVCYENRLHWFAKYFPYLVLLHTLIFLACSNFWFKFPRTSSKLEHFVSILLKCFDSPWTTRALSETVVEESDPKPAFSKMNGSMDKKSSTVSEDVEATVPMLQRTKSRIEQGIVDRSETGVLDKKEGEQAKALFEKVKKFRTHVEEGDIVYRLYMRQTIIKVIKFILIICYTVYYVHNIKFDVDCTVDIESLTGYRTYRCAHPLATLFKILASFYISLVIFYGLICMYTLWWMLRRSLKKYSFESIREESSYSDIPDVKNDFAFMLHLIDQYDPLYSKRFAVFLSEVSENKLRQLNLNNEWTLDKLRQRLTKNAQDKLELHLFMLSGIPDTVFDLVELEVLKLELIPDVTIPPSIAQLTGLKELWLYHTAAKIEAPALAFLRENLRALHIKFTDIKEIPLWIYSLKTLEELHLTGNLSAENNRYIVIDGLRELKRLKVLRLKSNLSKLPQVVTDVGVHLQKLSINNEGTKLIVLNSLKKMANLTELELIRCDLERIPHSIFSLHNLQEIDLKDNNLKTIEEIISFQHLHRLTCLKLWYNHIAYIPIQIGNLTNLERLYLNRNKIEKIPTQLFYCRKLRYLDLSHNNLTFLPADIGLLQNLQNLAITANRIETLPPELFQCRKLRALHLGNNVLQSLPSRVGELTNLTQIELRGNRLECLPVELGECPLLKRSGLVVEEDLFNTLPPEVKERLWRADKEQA
UniProt Q16853, sequence (whole entry, looked up): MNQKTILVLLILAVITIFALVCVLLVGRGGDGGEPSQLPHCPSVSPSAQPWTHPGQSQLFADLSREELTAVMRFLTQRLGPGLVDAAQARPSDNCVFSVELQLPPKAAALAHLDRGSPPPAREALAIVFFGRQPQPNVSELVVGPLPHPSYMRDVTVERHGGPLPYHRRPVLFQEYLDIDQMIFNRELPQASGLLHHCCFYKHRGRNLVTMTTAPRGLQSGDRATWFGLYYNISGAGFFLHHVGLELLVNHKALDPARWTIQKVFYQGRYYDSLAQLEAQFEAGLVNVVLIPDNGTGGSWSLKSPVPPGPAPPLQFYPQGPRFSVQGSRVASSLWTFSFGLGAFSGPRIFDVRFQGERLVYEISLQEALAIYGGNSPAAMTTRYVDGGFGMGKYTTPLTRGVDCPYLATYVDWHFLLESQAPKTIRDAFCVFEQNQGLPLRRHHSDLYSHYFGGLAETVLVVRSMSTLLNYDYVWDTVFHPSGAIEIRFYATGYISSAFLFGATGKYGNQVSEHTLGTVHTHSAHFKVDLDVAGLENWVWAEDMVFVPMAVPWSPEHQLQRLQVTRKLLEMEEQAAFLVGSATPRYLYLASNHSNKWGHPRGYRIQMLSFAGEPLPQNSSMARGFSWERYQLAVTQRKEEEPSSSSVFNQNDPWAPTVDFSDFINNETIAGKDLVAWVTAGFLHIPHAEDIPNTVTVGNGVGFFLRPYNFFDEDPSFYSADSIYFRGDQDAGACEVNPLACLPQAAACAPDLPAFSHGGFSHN
UniProt P43116, sequence (whole entry, looked up): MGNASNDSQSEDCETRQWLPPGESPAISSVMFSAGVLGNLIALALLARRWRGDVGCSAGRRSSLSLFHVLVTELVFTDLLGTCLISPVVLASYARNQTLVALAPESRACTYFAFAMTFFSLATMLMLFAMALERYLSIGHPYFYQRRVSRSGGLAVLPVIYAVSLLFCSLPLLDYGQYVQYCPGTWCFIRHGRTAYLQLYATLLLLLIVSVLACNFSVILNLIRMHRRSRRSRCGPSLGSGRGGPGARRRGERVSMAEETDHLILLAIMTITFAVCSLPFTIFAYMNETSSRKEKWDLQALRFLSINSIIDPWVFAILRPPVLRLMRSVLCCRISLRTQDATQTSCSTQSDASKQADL

| SMILES | target or system | test | system | conditions | scale | measurement | value |
| --- | --- | --- | --- | --- | --- | --- | --- |
| CNC(=O)[C@H](CNC(=O)CCn1c(=O)[nH]c(=O)c2ccccc21)NC(=O)c1cnc2ccccc2c1 | PARP10 (Homo sapiens, UniProt Q53GL7) | enzyme activity, inhibitor | – | concentration not given | – | inhibition | inhibited |
| CCc1nn(C)c2nc(-c3ccc(C(=O)O)cc3)nc(NCc3ccc(F)cc3)c12 | PDE2A (Homo sapiens, UniProt O00408) | inhibitor | – | 10 µM, mean of replicates, together with: [3H]cAMP | baseline: control | inhibition | 36.4% |
| Cn1cc(-c2cnc3ccc(NC(=O)Nc4ccc(F)c(Br)c4)cc3n2)cn1 | MAP3K1 (Homo sapiens, UniProt Q13233) | kinase binding, KiNativ profiling, item: Lys2 peptide | PANC-1 lysate | 5 µM | – | inhibition | 54.6% |
| Cc1ccc(CNC(=O)[C@H](CCc2ccccc2)NC(=O)[C@H](CCc2ccccc2)NC(=O)[C@H](CCc2ccccc2)NC(=O)c2cnc(C)cn2)cc1 | Prothrombin (F2, Homo sapiens, UniProt P00734) | enzyme activity | – | 100 µM | – | inhibition | 22% |
| CN1CCN(c2cc(-c3ccncc3)c(-c3ccc4ccccc4c3)nn2)CC1 | PTGER2 (Homo sapiens, UniProt P43116) | antagonist, FLIPR | – | 10 µM | – | inhibition | -8.4% |
| O=C(O)CCc1ccc2c(c1)OCO2 | Ubiquitin carboxyl-terminal hydrolase 33, ZnF-UBD domain (USP33, Homo sapiens, UniProt Q8TEY7) | – | – | – | – | Kd | > 1000 µM |
| COc1cccc(F)c1Cn1cnc(-c2ccc(F)cc2)c1-c1ccncc1 | CSNK1D | inhibitor | – | 1 µM | – | inhibition | 72% |
| COc1cc(-c2cc(C(C)=O)n3ccccc23)cc(OC)c1Cn1ccnc1 | PHIP, BD2 (Homo sapiens, UniProt Q8WWQ0) | – | – | 1 µM | – | inhibition | -16.4% |
| Cc1cccc(-c2nc(C(O)C3=CCCCC3)[nH]c2-c2ccncc2)c1 (stereo not shown) | CSNK1D | kinase activity | – | 1 µM | – | inhibition | 0% |
| Cc1cccc(-c2ccc([C@@H]3[C@@H](CO)N4CCCCN(S(=O)(=O)c5cn(C)cn5)C[C@@H]34)cc2)c1 | IDE | enzyme activity, inhibitor, fluorogenic kinetic | – | together with: Mca-RPPGFSAFK(Dnp)-OH substrate | – | EC50 | 0.85 µM |
| Fc1cccc(Nc2ccc3ncc(OCC4CCNCC4)nc3c2)c1 | Protein AF-9 with DOT1L | DOT1L binding, AlphaLISA | – | 10 µM | – | inhibition | 19 to 40% |
| COc1cc(C(=O)NS(=O)(=O)c2ccccc2C)ccc1Cc1cn(C)c2ccc(NC(=O)OC3CCCC3)cc12 | Volume-regulated anion channel subunit LRRC8C, part LRRC8A IL1 chimera (LRRC8C, Homo sapiens, UniProt Q8TDW0, I133F) | ion current, inhibitor, whole-cell patch clamp | HCT LRRC8-/- cells | 3 µM, +100 mV | – | inhibition | 23.9% and 18.8% and 14.6% and 58.2% and 17.1% |
| Nc1ncnc2c1ncn2C1OC(CSCCNCc2cccc(-c3ccccc3)c2)C(O)C1O (stereo not shown) | DNA methyltransferase CcrM (ccrMIM, Caulobacter vibrioides, UniProt P0CAW2) | – | – | 10 µM | – | inhibition | 47% |
| COc1nc(-c2cccc(-c3ccccc3)c2C)ccc1CNCCNC(=O)CCCCCCCCCCCN1CCN(CCNC(=O)c2cc3c(=O)n4cccc(C)c4nc3n(CCc3cccs3)c2=N)CC1 | CD274 | binding, inhibitor, HTRF | – | 1 µM | – | inhibition | 54.2 ± 3.1% |
| [2H]c1cc(C)c(NC(=O)c2cnc(Nc3cc(N4CCCCC4)nc(C)n3)s2)c(Cl)c1 | RET (Homo sapiens, UniProt P07949, M918T) | – | – | 0.01 µM | – | inhibition | < 30% |
| c1ccc(-c2ccc(-c3ccc4ncc(OCC5CCNCC5)nc4c3)cc2)cc1 | Protein AF-9 with DOT1L | DOT1L binding, AlphaLISA | – | 10 µM | – | inhibition | 14 to 17% |
| COc1cc(OC)cc(-c2cc(C(C)=O)n3ccccc23)c1 | BRD9 | binding, inhibitor, AlphaScreen | – | 1 µM | – | inhibition | 93.2% |
| CCCCCCCCCCCCCC(=S)NCCCC[C@H](NC(=O)OCc1ccccc1)C(=O)N[C@@H](Cc1c[nH]c2ccccc12)C(=O)NC(C)C | SIRT3 | enzyme activity, inhibitor | – | 10 µM | – | inhibition | < 5% |
| COc1cc2nccc(Oc3ccc(NC(=O)c4cc5c(n(-c6ccccc6)c4=O)CCCC5=O)nc3)c2cc1OC | AXL (Homo sapiens, UniProt P30530) | inhibitor | human patients | 6 mg once daily, day 29, combination with venetoclax | – | inhibition | 93 to 99% |
| COc1cc(OC)cc(Oc2ccc3ncc(OCC4CCNCC4)nc3c2)c1 | Protein AF-9 with DOT1L | DOT1L binding, AlphaLISA | – | 10 µM | – | inhibition | 2 to 16% |
| COc1ccc(OC)c(-c2cc(C(C)=O)n3ccccc23)c1 | BRD9 | binding, inhibitor, AlphaScreen | – | 1 µM | – | inhibition | 92.2% |
| CC(C)(C)c1ccc(Nc2ccc3ncc(OCC4CCNCC4)nc3c2)cc1 | Protein AF-9 with DOT1L | DOT1L binding, AlphaLISA | – | 10 µM | – | inhibition | 37% |
| COc1ccc(C(=O)/C=C/c2cccc(-c3cccc(-c4ccc(CN[C@@H](CO)C(N)=O)c(OC)n4)c3C)c2)cc1 | CD274 | binding, inhibitor, HTRF | – | 1 µM | – | inhibition | 7.7 ± 2.6% |
| Cc1nn(-c2cccc([N+](=O)[O-])c2)c(=O)c2nocc12 | GABAA receptor | binding, radioligand displacement | – | concentration not given, together with: muscimol radioligand | – | inhibition | -15.5% |
| Ic1cccc2cnccc12 | phorbol ester binding site (mouse) | radioligand binding, inhibitor | – | 10 µM | – | inhibition | -5% |

| SMILES | target or system | test | system | conditions | scale | measurement | value |
| --- | --- | --- | --- | --- | --- | --- | --- |
| O=C(Nc1ccc(S(=O)(=O)N2CCC(Cl)CC2)cc1)c1ccc([N+](=O)[O-])o1 | rat rolipram binding site | radioligand binding | – | 10 µM | – | inhibition | 12% |
| CC[C@@H]1[C@H](F)C(=O)N[C@@H]1COc1nccc2cc(C(N)=O)c(OC)cc12 | PHKG2 (Homo sapiens, UniProt P15735) | ATP-site probe binding, ActivX profiling | THP-1 cell lysate | 0.2 mM, Lys1 site | – | inhibition | 0.151% |
| N#Cc1ccc(-c2ccc3ncc(OCC4CCNCC4)nc3c2)cc1F | Protein AF-9 with DOT1L | DOT1L binding, AlphaLISA | – | 10 µM | – | inhibition | 10 to 30% |
| COc1ccc(C(=O)/C=C/c2cccc(-c3cccc(-c4ccc(CNC(CO)(CO)CO)c(OC)n4)c3C)c2)cc1 | CD274 | binding, inhibitor, HTRF | – | 1 µM | – | inhibition | 9.4 ± 0.9% |
| O=C(CCc1ccc(O)cc1)c1c(O)cc(O)cc1O | Urea transporter 1 (Homo sapiens, UniProt Q13336) | urea transport | human cells | 500 µM, together with: [14C]urea | – | inhibition | 97.7% |
| NC/C(=C\F)COc1cccc(Cn2c(=S)[nH]c(=O)c3[nH]cnc32)c1 | AOC3 (Homo sapiens, UniProt Q16853) | H2O2 production, Amplex Red | – | 3 µM, recombinant human enzyme | – | inhibition | 100% |
| O=C(Nc1cccc2c(=O)cc(-c3nnn[nH]3)oc12)c1ccc(OCCCCc2ccccc2)cc1 | LRRC8A/LRRC8C (Homo sapiens, UniProt Q8IWT6+Q8TDW0, L134K/L136K) | ion current, whole-cell patch clamp | LRRC8-/- HCT cells | 1 µM, L134K/L136K mutant, +100 mV | – | inhibition | 46.4% and 27.9% and 50.5% and 53% and 51.1% and 18.7% |
| Cc1cc(CCOCCCCCc2ccccc2)cc2nc[nH]c12 | ATP2A2 (Sus scrofa, UniProt P11607) | ATPase activity | pig microsomes | 50 µM | – | inhibition | ~29% |
| CC[C@H](C)[C@H](NC(=O)[C@H](CCSC)NC(=O)[C@@H](NC(=O)[C@H](Cc1c[nH]c2ccccc12)NC(=O)[C@H](Cc1c[nH]c2ccccc12)NC(=O)CNC(C)=O)C(C)C)C(=O)N[C@@H](Cc1ccccc1)C(N)=O | Programmed cell death 1 ligand 1, with PD-1 (CD274, Homo sapiens, UniProt Q9NZQ7) | PD-1/PD-L1 binding, ELISA | – | 10 µM | – | inhibition | 92.2 ± 1% |
| Cc1[nH]c(C)c(-c2ccc(OCc3cc(F)cc(F)c3)nc2)c(=O)c1Br | Plasmodium yoelii | – | 17XL | 384-well | – | IC50 | 0.313 ± 0.065 µM |
| CCCC(=S)NCCCC[C@H](NS(C)(=O)=O)C(=O)N[C@H](C)C(=O)N[C@@H](CCCNC(=N)N)C(N)=O | SIRT3 | enzyme activity, inhibitor | – | 10 µM | – | inhibition | < 5% |
| Cc1ccc(C(=O)Nc2ccc3ccccc3c2)o1 | A-type voltage-gated potassium channel KCND2 | ion current, inhibitor, whole-cell patch clamp | – | 10 µM | – | inhibition | 8.2% and 0.8% and 7.7% and 14.5% and 4.4% |
| CCN(C)Cc1c(OC)cc(-c2cc(C(C)=O)n3ccccc23)cc1OC | BRD9 | AlphaScreen | – | 1 µM | – | inhibition | 95.2% |
| O=C(NO)c1ccc(CN2CCCCc3ccccc32)c(F)c1 | ADRA1B (Homo sapiens, UniProt P35368) | radioligand binding, PDSP radioligand binding | – | 10 µM | – | inhibition | -5.21% |
| Cc1cccc(-c2ccc([C@@H]3[C@@H](CO)N4CCCCN(S(=O)(=O)c5cccs5)C[C@@H]34)cc2)c1 | IDE | enzyme activity, inhibitor, fluorogenic kinetic | – | together with: Mca-RPPGFSAFK(Dnp)-OH substrate | – | EC50 | 0.8 µM |
| CC(=O)c1cc(-c2ccccn2)c2ccccn12 | BRD9 | AlphaScreen | – | 1 µM | – | inhibition | 85.4% |
| Cc1cc(NC2CCCC2)nc(Nc2ccccc2)n1 | Plasmodium yoelii | – | 17XL | 384-well | – | IC50 | > 20 µM |
| COc1cc(C(C)O)c(OC)cc1-c1cc(C(C)=O)n2ccccc12 (stereo not shown) | BRD9 | AlphaScreen | – | 1 µM | – | inhibition | 93.9% |
| CC1CNCCN1S(=O)(=O)c1cccc2cnccc12 (stereo not shown) | Sulfonylurea receptor 1, Kir6.2 (Homo sapiens, UniProt Q09428+Q14654) | channel activity, inside-out patch clamp | HEK293 expressing Kir6.2/SUR1 | concentration not given, 7 min, together with: MgADP | – | inhibition | 48 ± 12% |
| CC(=O)c1cc(-c2ccccc2)c2ccccn12 | BRD9 | AlphaScreen | – | 1 µM | – | inhibition | 80.7% |
| Cc1ccc(-c2ccc3ncc(OCC4CCNCC4)nc3c2)cc1C | Protein AF-9 with DOT1L | DOT1L binding, AlphaLISA | – | 10 µM | – | inhibition | 9 to 18% |
| CC(C)c1noc2ncc(C(=O)c3ccccc3O)cc12 | A-type voltage-gated potassium channel KCND2 | ion current, inhibitor, whole-cell patch clamp | – | 10 µM | – | inhibition | 7.97% and 8.92% and 20.3% and 21.5% and 13% |
| c1cc(N2CCOCC2)ccc1-c1ccc2ncc(OCC3CCNCC3)nc2c1 | Protein AF-9 with DOT1L | DOT1L binding, AlphaLISA | – | 10 µM | – | inhibition | 47.8% |
| CC(=O)c1cc(-c2cccc(CO)c2)c2ccccn12 | BRD9 | AlphaScreen | – | 1 µM | – | inhibition | 89.1% |

A few entries again:
| SMILES | target or system | test | system | conditions | scale | measurement | value |
| --- | --- | --- | --- | --- | --- | --- | --- |
| COc1cc(-c2cc(C(C)=O)n3ccccc23)cc(OC)c1Cn1ccnc1 | PHIP, BD2 (Homo sapiens, UniProt Q8WWQ0) | – | – | 1 µM | – | inhibition | -16.4% |
| Cc1cccc(-c2nc(C(O)C3=CCCCC3)[nH]c2-c2ccncc2)c1 (stereo not shown) | CSNK1D | kinase activity | – | 1 µM | – | inhibition | 0% |
| Cc1cccc(-c2ccc([C@@H]3[C@@H](CO)N4CCCCN(S(=O)(=O)c5cn(C)cn5)C[C@@H]34)cc2)c1 | IDE | enzyme activity, inhibitor, fluorogenic kinetic | – | together with: Mca-RPPGFSAFK(Dnp)-OH substrate | – | EC50 | 0.85 µM |
| Fc1cccc(Nc2ccc3ncc(OCC4CCNCC4)nc3c2)c1 | Protein AF-9 with DOT1L | DOT1L binding, AlphaLISA | – | 10 µM | – | inhibition | 19 to 40% |
